# Published values gathered from unrelated publications.
# Compare with care: the assays were run in different laboratories.
# Organism: Pseudomonas aeruginosa
Structure (SMILES),test,test system,setting,MIC
CC(=O)N[C@@H](CC(C)C)C(=O)N[C@H]1CSSC[C@@H](C(=O)N2CCC[C@H]2C(N)=O)NC(=O)[C@H]([C@@H](C)O)NC(=O)[C@H](C(C)C)NC(=O)[C@H]([C@@H](C)O)NC(=O)[C@H](CCCCN)NC(=O)[C@H](CC(C)C)NC(=O)[C@H](Cc2ccccc2)NC(=O)[C@H](Cc2ccc(O)cc2)NC(=O)[C@H](CC(C)C)NC(=O)[C@H](CCCCN)NC(=O)[C@H](Cc2ccccc2)NC(=O)[C@H](CCCNC(=N)N)NC(=O)[C@H](CCC(N)=O)NC(=O)[C@H](CC(C)C)NC(=O)[C@H](CCCCN)NC(=O)[C@@H]2CCCN2C(=O)[C@H](CCCCN)NC(=O)[C@H](C(C)C)NC(=O)[C@H](CC(N)=O)NC(=O)[C@H](Cc2ccc(O)cc2)NC(=O)[C@H]([C@@H](C)O)NC1=O,broth dilution,CGMCC strain,24 h,20 to 40 µM
O=c1n(CCNCCOS(=O)(=O)c2ccccc2)c(=O)n(S(=O)(=O)c2ccccc2)c(=O)n1S(=O)(=O)c1ccccc1,"microbial growth, broth dilution",,,2 µg/mL
CN[C@H](CC(C)C)C(=O)N[C@H]1C(=O)N[C@@H](CC(N)=O)C(=O)N[C@H]2C(=O)N[C@H]3C(=O)N[C@H](C(=O)N[C@H](C(=O)NCc4cn(CC(=O)N[C@H](C(=O)N[C@@H](CCN)C(=O)N[C@H]5CCNC(=O)[C@H]([C@@H](C)O)NC(=O)[C@H](CCN)NC(=O)[C@H](CCN)NC(=O)[C@H](CC(C)C)NC(=O)[C@@H](CC(C)C)NC(=O)[C@H](CCN)NC5=O)[C@@H](C)O)nn4)c4cc(O)cc(O)c4-c4cc3ccc4O)[C@H](O)c3ccc(c(Cl)c3)Oc3cc2cc(c3O[C@@H]2O[C@H](CO)[C@@H](O)[C@H](O)[C@H]2O[C@H]2C[C@](C)(N)[C@H](O)[C@H](C)O2)Oc2ccc(cc2Cl)[C@H]1O,broth microdilution,"ATCC 17978, cation-adjusted Mueller-Hinton broth",,51 µM
CC(=O)N[C@H](Cc1ccc(Br)cc1)C(=O)N[C@@H](CCN)C(=O)N[C@H](C(=O)N[C@@H](CCN)C(=O)N[C@H]1CCNC(=O)[C@H]([C@@H](C)O)NC(=O)[C@H](CCN)NC(=O)[C@H](CCN)NC(=O)[C@H](CC(C)C)NC(=O)[C@@H](Cc2ccccc2)NC(=O)[C@H](CCN)NC1=O)[C@@H](C)O,broth microdilution,colistin-resistant isolates,,16 to 32 µg/mL
CC[C@H](C)[C@H](NC(=O)[C@@H](CCCNC(=N)N)NC(=O)[C@H](CCCNC(=N)N)NC(=O)[C@@H](NC(=O)[C@H](Cc1c[nH]c2ccccc12)NC(=O)[C@H](CCCNC(=N)N)NC(=O)[C@@H]1CCCN1C(=O)[C@H](CCCNC(=N)N)NC(=O)[C@@H]1CCCN1C(=O)[C@H](CC(C)C)NC(=O)[C@H](Cc1ccc(O)cc1)NC(=O)[C@@H]1CCCN1C(=O)[C@@H]1CCCN1C(=O)[C@H](CCCCN)NC(=O)[C@H](CC(=O)O)NC(=O)[C@@H](N)C(C)C)C(C)C)C(=O)N[C@@H](Cc1ccc(O)cc1)C(=O)N[C@@H](CC(N)=O)C(=O)N[C@H](CCCNC(=N)N)C(N)=O,broth microdilution,DSM 1117,"18 h, 37 °C, 25% MHB2",128 µg/mL
CC(C)C[C@H](NC(=O)[C@H](CCCCN)NC(=O)[C@H](CC(C)C)NC(=O)[C@H](CCCCN)NC(=O)C1CCCC=CCCC(NC(=O)[C@H](CCCCN)NC(=O)[C@H](CC(C)C)NC(=O)[C@H](CCCCN)NC(=O)[C@@H](N)CC(C)C)C(=O)N[C@@H](CCCCN)C(=O)N2CCC[C@@H]2C(=O)NCC(=O)N[C@@H](CCCCN)C(=O)N1)C(N)=O (stereo partly shown),broth microdilution,"ATCC 9027, Mueller-Hinton broth","18 h, 37 °C",8 µM
CC[C@H](C)[C@H](N)C(=O)N[C@@H](CCCNC(=N)N)C(=O)N[C@H](C(=O)N[C@@H](Cc1c[nH]c2ccccc12)C(=O)N[C@@H](Cc1ccccc1)C(=O)N[C@H](C(=O)N[C@@H](CCCCN)C(=O)N[C@H](C(=O)N[C@@H](CCCNC(=N)N)C(=O)N[C@@H](CCCCN)C(=O)N[C@@H](CCSC)C(=O)N[C@@H](CCCCN)C(=O)N[C@@H](C)C(=O)N[C@H](C(=O)N[C@@H](Cc1ccc(O)cc1)C(=O)N[C@@H](Cc1c[nH]cn1)C(=O)N[C@H](C(N)=O)[C@@H](C)O)[C@@H](C)CC)C(C)C)[C@@H](C)CC)C(C)C,broth dilution,ATCC 27853,,> 100 µM
CN[C@H](CC(C)C)C(=O)N[C@H]1C(=O)N[C@@H](CC(N)=O)C(=O)N[C@H]2C(=O)N[C@H]3C(=O)N[C@H](C(=O)N[C@H](C(=O)NCC(N)=O)c4cc(O)cc(O)c4-c4cc3ccc4O)[C@H](O)c3ccc(c(Cl)c3)Oc3cc2cc(c3O[C@@H]2O[C@H](CO)[C@@H](O)[C@H](O)[C@H]2O[C@H]2C[C@](C)(NCc3ccc(OCc4cn(CC(=O)N[C@H](C(=O)N[C@@H](CCN)C(=O)N[C@H]5CCNC(=O)[C@H]([C@@H](C)O)NC(=O)[C@H](CCN)NC(=O)[C@H](CCN)NC(=O)[C@H](CC(C)C)NC(=O)[C@@H](CC(C)C)NC(=O)[C@H](CCN)NC5=O)[C@@H](C)O)nn4)c(OC)c3)[C@H](O)[C@H](C)O2)Oc2ccc(cc2Cl)[C@H]1O,broth microdilution,"ATCC 13883, cation-adjusted Mueller-Hinton broth",,6 µM
CC[C@H](C)[C@H](NC(=O)[C@@H](CCCNC(=N)N)NC(=O)[C@H](CCCNC(=N)N)NC(=O)[C@@H]1CCCN1C(=O)[C@@H]1CCCN1C(=O)[C@H](Cc1c[nH]c2ccccc12)NC(=O)[C@@H]1CCCN1C(=O)[C@H](CCCNC(=N)N)NC(=O)[C@@H]1CCCN1C(=O)[C@H](CC(C)C)NC(=O)[C@H](Cc1ccc(O)cc1)NC(=O)[C@@H]1CCCN1C(=O)[C@@H]1CCCN1C(=O)[C@H](CCCCN)NC(=O)[C@H](CC(=O)O)NC(=O)[C@@H](N)C(C)C)C(=O)N[C@@H](Cc1ccc(O)cc1)C(=O)N[C@@H](CC(N)=O)C(=O)N[C@H](CCCNC(=N)N)C(N)=O,broth microdilution,DSM 1117,"18 h, 37 °C, 25% MHB2",64 µg/mL
CN[C@H](CC(C)C)C(=O)N[C@H]1C(=O)N[C@@H](CC(N)=O)C(=O)N[C@H]2C(=O)N[C@H]3C(=O)N[C@H](C(=O)N[C@H](C(=O)N[C@@H](CCCNC(=N)N)C(N)=O)c4cc(O)cc(O)c4-c4cc3ccc4O)[C@H](O)c3ccc(c(Cl)c3)Oc3cc2cc(c3O[C@@H]2O[C@H](CO)[C@@H](O)[C@H](O)[C@H]2O[C@H]2C[C@](C)(NCc3ccc(OCc4cn(CC(=O)N[C@H](C(=O)N[C@@H](CCN)C(=O)N[C@H]5CCNC(=O)[C@H]([C@@H](C)O)NC(=O)[C@H](CCN)NC(=O)[C@H](CCN)NC(=O)[C@H](CC(C)C)NC(=O)[C@@H](CC(C)C)NC(=O)[C@H](CCN)NC5=O)[C@@H](C)O)nn4)c(OC)c3)[C@H](O)[C@H](C)O2)Oc2ccc(cc2Cl)[C@H]1O,broth microdilution,"ATCC 27853, cation-adjusted Mueller-Hinton broth",,6 µM
N=C(N)NCCC[C@@H]1NC(=O)[C@@H](CCCNC(=N)N)NC(=O)[C@H](CCCNC(=N)N)NC(=O)[C@@H](C(c2ccccc2)c2ccccc2)NC(=O)[C@@H](C(c2ccccc2)c2ccccc2)NC(=O)[C@@H](C(c2ccccc2)c2ccccc2)NC(=O)[C@@H](CCCNC(=N)N)NC1=O,,"1188712, multidrug-resistant",,32 µg/mL
CC[C@H](C)[C@H](NC(=O)[C@H](CCCCN)NC(=O)[C@H](Cc1c[nH]c2ccccc12)NC(=O)[C@H](Cc1c[nH]c2ccccc12)NC(=O)[C@H](CCCCN)NC(=O)[C@H](CCCCN)NC(=O)[C@H](CCCCN)NC(=O)[C@H](Cc1c[nH]c2ccccc12)NC(=O)[C@H](CCCCN)NC(=O)[C@H](CCCCN)NC(=O)[C@H](Cc1c[nH]c2ccccc12)NC(=O)[C@H](CCCCN)NC(=O)[C@H](CCCCN)NC(=O)[C@@H](NC(=O)[C@@H](NC(=O)[C@H](CCCCN)NC(=O)[C@@H](N)CCCNC(=N)N)[C@@H](C)CC)[C@@H](C)CC)C(=O)N[C@@H](Cc1c[nH]c2ccccc12)C(=O)N[C@@H](Cc1c[nH]c2ccccc12)C(=O)N[C@@H](CCCCN)C(N)=O,broth microdilution,10145,,1.25 µg/mL
CN[C@H](CC(C)C)C(=O)N[C@H]1C(=O)N[C@@H](CC(N)=O)C(=O)N[C@H]2C(=O)N[C@H]3C(=O)N[C@H](C(=O)N[C@H](C(=O)O)c4cc(O)cc(O)c4-c4cc3ccc4O)[C@H](O)c3ccc(c(Cl)c3)Oc3cc2cc(c3O[C@@H]2O[C@H](CO)[C@@H](O)[C@H](O)[C@H]2O[C@H]2C[C@](C)(NCc3ccc(OCc4cn(CCCCC(=O)N[C@H](C(=O)N[C@@H](CCN)C(=O)N[C@H]5CCNC(=O)[C@H]([C@@H](C)O)NC(=O)[C@H](CCN)NC(=O)[C@H](CCN)NC(=O)[C@H](CC(C)C)NC(=O)[C@@H](CC(C)C)NC(=O)[C@H](CCN)NC5=O)[C@@H](C)O)nn4)c(OC)c3)[C@H](O)[C@H](C)O2)Oc2ccc(cc2Cl)[C@H]1O,broth microdilution,"ATCC 27853, cation-adjusted Mueller-Hinton broth",,6 µM
CCCCCCCC(=O)N[C@@H](CCN)C(=O)N[C@H](C(=O)N[C@@H](CCN)C(=O)N[C@H]1CCNC(=O)[C@H]([C@@H](C)O)NC(=O)[C@H](CCN)NC(=O)[C@H](CCN)NC(=O)[C@H](CCC(C)C)NC(=O)[C@@H](Cc2ccccc2)NC(=O)[C@H](CCN)NC1=O)[C@@H](C)O,,ATCC 27853,,0.25 to 0.5 µg/mL
CC(C)C[C@@H]1NC(=O)[C@@H](CC(C)C)NC(=O)[C@H](CCN)NC(=O)[C@@H](NC(=O)[C@H](CCN)NC(=O)[C@@H](NC(=O)CN=[N+]=[N-])[C@@H](C)O)CCNC(=O)[C@H]([C@@H](C)O)NC(=O)[C@H](CCN)NC(=O)[C@H](CCN)NC1=O,broth microdilution,"ATCC 13883, cation-adjusted Mueller-Hinton broth",,32 µM
CC[C@H](C)[C@H](NC(=O)[C@@H](CCCNC(=N)N)NC(=O)[C@H](CCCNC(=N)N)NC(=O)[C@H](C)NC(=O)[C@H](Cc1c[nH]c2ccccc12)NC(=O)[C@H](CCCNC(=N)N)NC(=O)[C@@H]1CCCN1C(=O)[C@H](CCCNC(=N)N)NC(=O)[C@@H]1CCCN1C(=O)[C@H](CC(C)C)NC(=O)[C@H](Cc1ccc(O)cc1)NC(=O)[C@@H]1CCCN1C(=O)[C@@H]1CCCN1C(=O)[C@H](CCCCN)NC(=O)[C@H](CC(=O)O)NC(=O)[C@@H](N)C(C)C)C(=O)N[C@@H](Cc1ccc(O)cc1)C(=O)N[C@@H](CC(N)=O)C(=O)N[C@H](CCCNC(=N)N)C(N)=O,broth microdilution,DSM 1117,"18 h, 37 °C, 25% MHB2",> 128 µg/mL

# For quick reference, copied from above:
Structure (SMILES),test,test system,setting,MIC
CC[C@H](C)[C@H](NC(=O)[C@@H](CCCNC(=N)N)NC(=O)[C@H](CCCNC(=N)N)NC(=O)[C@@H]1CCCN1C(=O)[C@@H]1CCCN1C(=O)[C@H](Cc1c[nH]c2ccccc12)NC(=O)[C@@H]1CCCN1C(=O)[C@H](CCCNC(=N)N)NC(=O)[C@@H]1CCCN1C(=O)[C@H](CC(C)C)NC(=O)[C@H](Cc1ccc(O)cc1)NC(=O)[C@@H]1CCCN1C(=O)[C@@H]1CCCN1C(=O)[C@H](CCCCN)NC(=O)[C@H](CC(=O)O)NC(=O)[C@@H](N)C(C)C)C(=O)N[C@@H](Cc1ccc(O)cc1)C(=O)N[C@@H](CC(N)=O)C(=O)N[C@H](CCCNC(=N)N)C(N)=O,broth microdilution,DSM 1117,"18 h, 37 °C, 25% MHB2",64 µg/mL
CN[C@H](CC(C)C)C(=O)N[C@H]1C(=O)N[C@@H](CC(N)=O)C(=O)N[C@H]2C(=O)N[C@H]3C(=O)N[C@H](C(=O)N[C@H](C(=O)N[C@@H](CCCNC(=N)N)C(N)=O)c4cc(O)cc(O)c4-c4cc3ccc4O)[C@H](O)c3ccc(c(Cl)c3)Oc3cc2cc(c3O[C@@H]2O[C@H](CO)[C@@H](O)[C@H](O)[C@H]2O[C@H]2C[C@](C)(NCc3ccc(OCc4cn(CC(=O)N[C@H](C(=O)N[C@@H](CCN)C(=O)N[C@H]5CCNC(=O)[C@H]([C@@H](C)O)NC(=O)[C@H](CCN)NC(=O)[C@H](CCN)NC(=O)[C@H](CC(C)C)NC(=O)[C@@H](CC(C)C)NC(=O)[C@H](CCN)NC5=O)[C@@H](C)O)nn4)c(OC)c3)[C@H](O)[C@H](C)O2)Oc2ccc(cc2Cl)[C@H]1O,broth microdilution,"ATCC 27853, cation-adjusted Mueller-Hinton broth",,6 µM
